# Measurements collected from several papers.
# Protocols differ between the studies behind these lines. ± gives the spread as reported.
# AKR1C1: Aldo-keto reductase family 1 member C1 (AKR1C1, Homo sapiens, UniProt Q04828)
# UniProt Q04828, sequence (whole entry, looked up): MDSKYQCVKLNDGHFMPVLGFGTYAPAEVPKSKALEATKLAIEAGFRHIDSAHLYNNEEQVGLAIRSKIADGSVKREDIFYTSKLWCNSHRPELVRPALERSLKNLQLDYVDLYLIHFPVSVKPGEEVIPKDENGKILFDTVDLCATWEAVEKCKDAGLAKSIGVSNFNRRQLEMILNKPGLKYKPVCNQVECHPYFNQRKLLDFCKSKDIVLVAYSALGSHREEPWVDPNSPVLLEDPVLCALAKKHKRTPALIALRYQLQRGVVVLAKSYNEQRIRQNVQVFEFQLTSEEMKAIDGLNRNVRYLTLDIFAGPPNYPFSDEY
# IDO1: Indoleamine 2,3-dioxygenase 1 (IDO1, Homo sapiens, UniProt P14902)
# UniProt P14902, sequence (whole entry, looked up): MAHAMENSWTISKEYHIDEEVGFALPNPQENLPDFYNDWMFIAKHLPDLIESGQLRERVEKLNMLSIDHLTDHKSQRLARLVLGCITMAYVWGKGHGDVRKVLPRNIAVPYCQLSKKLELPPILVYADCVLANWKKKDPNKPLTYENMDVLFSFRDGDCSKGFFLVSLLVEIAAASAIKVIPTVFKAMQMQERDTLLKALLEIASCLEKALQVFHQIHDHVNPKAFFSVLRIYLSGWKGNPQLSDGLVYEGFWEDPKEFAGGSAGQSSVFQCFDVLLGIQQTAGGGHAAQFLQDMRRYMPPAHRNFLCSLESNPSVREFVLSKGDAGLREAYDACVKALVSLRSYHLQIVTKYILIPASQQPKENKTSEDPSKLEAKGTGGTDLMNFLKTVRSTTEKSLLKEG
# PPO3: PPO3 (Agaricus bisporus, UniProt C7FF04)
# UniProt C7FF04, sequence (whole entry, looked up): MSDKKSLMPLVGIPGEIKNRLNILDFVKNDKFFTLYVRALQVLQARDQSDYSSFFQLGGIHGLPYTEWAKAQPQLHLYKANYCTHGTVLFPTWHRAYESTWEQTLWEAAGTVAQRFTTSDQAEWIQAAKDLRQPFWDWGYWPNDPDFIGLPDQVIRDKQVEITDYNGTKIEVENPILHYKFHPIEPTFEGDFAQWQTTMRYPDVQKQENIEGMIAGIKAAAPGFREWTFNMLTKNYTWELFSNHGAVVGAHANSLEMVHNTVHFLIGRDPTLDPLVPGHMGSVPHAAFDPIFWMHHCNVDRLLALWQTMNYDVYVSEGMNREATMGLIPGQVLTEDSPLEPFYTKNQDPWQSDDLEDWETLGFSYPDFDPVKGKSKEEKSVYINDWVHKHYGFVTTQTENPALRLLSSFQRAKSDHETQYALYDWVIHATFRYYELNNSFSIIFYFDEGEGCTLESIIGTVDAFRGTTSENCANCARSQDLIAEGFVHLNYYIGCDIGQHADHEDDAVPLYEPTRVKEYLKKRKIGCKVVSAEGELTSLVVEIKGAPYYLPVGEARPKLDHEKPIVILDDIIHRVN
# UniProt Q13535, sequence (whole entry, looked up): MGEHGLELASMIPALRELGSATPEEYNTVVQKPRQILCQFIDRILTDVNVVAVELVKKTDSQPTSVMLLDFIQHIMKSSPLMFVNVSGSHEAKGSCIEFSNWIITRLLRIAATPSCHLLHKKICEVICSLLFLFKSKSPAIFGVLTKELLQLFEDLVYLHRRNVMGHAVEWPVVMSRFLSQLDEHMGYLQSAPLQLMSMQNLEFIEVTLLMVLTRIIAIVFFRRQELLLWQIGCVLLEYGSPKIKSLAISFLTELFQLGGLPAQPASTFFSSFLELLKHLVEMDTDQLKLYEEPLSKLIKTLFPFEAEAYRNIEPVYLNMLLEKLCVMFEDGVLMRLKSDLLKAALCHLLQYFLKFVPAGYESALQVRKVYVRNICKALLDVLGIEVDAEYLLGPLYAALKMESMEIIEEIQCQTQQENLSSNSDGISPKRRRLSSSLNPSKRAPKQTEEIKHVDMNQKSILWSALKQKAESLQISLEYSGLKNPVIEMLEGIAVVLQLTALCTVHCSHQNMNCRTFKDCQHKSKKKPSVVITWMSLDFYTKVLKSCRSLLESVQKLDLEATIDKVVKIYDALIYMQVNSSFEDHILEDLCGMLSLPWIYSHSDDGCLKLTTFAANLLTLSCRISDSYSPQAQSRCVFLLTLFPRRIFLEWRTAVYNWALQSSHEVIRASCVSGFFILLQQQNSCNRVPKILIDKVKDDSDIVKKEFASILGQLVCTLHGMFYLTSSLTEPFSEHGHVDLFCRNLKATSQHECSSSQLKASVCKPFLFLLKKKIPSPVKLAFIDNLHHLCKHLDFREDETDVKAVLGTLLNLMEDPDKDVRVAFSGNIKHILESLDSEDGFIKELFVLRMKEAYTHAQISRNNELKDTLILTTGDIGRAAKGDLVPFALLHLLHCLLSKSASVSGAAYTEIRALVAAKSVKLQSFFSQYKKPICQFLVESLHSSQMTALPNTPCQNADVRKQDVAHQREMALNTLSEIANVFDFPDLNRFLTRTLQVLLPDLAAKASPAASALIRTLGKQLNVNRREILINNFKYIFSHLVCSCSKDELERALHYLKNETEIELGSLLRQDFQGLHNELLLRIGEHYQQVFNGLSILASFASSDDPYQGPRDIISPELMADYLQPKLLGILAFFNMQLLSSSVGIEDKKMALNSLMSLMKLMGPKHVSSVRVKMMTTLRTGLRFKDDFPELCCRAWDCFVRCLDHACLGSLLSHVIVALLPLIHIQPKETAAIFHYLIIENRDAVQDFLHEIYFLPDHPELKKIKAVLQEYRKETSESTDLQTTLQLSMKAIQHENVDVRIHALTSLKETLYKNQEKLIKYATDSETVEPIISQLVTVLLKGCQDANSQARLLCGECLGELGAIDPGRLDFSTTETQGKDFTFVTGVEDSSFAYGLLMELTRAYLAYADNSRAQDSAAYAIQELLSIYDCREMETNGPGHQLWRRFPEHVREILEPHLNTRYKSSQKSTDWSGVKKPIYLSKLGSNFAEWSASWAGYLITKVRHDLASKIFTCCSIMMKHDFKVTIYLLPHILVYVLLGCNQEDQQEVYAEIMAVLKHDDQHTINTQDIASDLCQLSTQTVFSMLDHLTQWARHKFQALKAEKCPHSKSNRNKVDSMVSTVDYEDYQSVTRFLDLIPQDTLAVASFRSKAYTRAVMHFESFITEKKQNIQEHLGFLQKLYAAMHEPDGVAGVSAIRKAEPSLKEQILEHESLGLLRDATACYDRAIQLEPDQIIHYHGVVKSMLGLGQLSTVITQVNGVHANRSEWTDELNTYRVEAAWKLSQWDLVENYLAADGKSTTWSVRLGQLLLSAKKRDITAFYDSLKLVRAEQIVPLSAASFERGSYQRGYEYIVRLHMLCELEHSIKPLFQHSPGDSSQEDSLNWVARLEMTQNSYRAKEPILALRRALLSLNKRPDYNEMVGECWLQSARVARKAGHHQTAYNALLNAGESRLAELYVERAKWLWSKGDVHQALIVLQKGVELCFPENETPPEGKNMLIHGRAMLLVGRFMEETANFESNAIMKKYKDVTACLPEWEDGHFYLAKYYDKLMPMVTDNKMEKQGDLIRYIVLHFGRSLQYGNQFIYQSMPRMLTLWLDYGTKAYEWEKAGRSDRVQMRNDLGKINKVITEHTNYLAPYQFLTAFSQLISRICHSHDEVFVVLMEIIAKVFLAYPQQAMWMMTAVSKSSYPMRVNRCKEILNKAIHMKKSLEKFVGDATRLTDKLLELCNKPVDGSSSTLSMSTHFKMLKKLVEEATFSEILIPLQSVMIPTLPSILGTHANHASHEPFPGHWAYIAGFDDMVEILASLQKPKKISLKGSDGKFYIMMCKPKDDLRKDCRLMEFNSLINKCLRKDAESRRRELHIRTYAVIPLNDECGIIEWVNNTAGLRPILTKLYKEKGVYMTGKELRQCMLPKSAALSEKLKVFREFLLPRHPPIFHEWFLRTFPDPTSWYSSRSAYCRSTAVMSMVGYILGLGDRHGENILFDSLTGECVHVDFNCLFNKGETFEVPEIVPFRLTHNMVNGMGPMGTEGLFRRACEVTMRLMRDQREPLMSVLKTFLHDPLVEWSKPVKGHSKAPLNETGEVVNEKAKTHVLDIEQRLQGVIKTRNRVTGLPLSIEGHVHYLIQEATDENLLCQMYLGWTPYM
# UniProt P22314, sequence (whole entry, looked up): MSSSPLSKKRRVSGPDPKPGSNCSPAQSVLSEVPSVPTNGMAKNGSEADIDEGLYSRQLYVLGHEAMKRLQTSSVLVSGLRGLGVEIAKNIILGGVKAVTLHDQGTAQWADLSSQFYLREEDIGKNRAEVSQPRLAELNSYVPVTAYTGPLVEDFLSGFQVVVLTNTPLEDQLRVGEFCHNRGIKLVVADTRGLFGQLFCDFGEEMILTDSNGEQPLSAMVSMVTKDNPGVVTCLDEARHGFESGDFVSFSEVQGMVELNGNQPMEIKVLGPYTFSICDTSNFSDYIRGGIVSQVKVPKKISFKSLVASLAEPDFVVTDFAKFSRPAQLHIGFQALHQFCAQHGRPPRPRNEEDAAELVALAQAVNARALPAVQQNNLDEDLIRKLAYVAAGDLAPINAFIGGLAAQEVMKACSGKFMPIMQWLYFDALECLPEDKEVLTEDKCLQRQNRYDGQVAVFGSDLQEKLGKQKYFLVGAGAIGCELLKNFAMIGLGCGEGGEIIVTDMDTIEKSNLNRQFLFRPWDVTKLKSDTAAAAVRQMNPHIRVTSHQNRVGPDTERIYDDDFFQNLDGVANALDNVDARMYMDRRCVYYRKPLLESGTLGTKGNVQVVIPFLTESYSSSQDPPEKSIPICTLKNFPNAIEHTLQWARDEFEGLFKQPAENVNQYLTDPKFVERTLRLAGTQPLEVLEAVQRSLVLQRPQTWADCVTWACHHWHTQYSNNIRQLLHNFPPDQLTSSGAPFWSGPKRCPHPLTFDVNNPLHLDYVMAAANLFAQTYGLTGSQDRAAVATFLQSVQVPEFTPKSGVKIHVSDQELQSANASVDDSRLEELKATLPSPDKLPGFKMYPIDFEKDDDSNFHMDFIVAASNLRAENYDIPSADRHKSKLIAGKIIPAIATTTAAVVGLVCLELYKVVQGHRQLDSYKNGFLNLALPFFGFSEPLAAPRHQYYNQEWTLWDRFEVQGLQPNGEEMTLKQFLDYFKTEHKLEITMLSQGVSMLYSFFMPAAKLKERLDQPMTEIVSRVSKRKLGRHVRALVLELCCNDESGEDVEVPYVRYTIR
Compound,target,test,test system,setting,scale,inhibition
COc1ccc2c(c1Br)CC[C@@H]1[C@@H]2CC[C@@]2(C)C(=O)CC[C@@H]12,AKR1C1,"enzyme activity, inhibitor, absorbance",,"10 µM, pH 9",,12.9%
CC(=O)c1cc(CO[C@H]2OC[C@H](O[C@@H]3O[C@H](CO)[C@@H](O)[C@H](O)[C@H]3O)[C@@H](O)[C@@H]2O)c2cccc(O[C@@H]3O[C@@H](C)[C@H](O)[C@@H](O)[C@H]3O)c2c1O,IDO1,kynurenine formation,,100 µM,,52.35 ± 0.48%
C[C@@]12CC[C@@H]3c4ccc(O)c(I)c4CC[C@H]3[C@@H]1CCC2=O,AKR1C1,"enzyme activity, inhibitor, absorbance",,"10 µM, pH 9",,2.3%
CCCOc1ccc(C2CC(c3ccc(C)cc3)=Nc3ccccc3S2)cc1OC (stereo not shown),PPO3,"enzyme activity, inhibitor",,25 µg/mL,,38%
NCCC(=O)N[C@@H](Cc1c[nH]c2ccccc12)C(=O)N[C@@H](Cc1ccc(Cl)cc1)C(=O)N[C@@H](Cc1ccncc1)C(N)=O,"Ephrin type-A receptor 4, ectodomain (Epha4, Mus musculus, UniProt Q03137)","ephrin-A5 binding, antagonist, ELISA",,"500 µM, added: ephrin-A5-AP",,75%
CCCC[C@H](NC(C)=O)C(=O)N1CCC[C@H]1C(=O)N[C@@H](CO)C(=O)N[C@@H](CO)C(=O)N[C@@H](C)C(=O)N[C@@H](CO)C(=O)N[C@@H](CCCNC(=N)N)C(=O)N[C@@H](CCC(N)=O)C(=O)N[C@@H](CC(C)C)C(=O)N[C@@]1(C)CCCC=CCCC[C@@](C)(C(=O)N[C@@H](CCCCN)C(=O)N[C@@H](CCC(=O)O)C(=O)N[C@H](C(=O)N[C@@H](CCC(N)=O)C(N)=O)[C@@H](C)CC)NC(=O)[C@H](CCC(N)=O)NC(=O)[C@H](CCCCN)NC(=O)[C@H](CCCNC(=N)N)NC1=O,"UBA1 (Homo sapiens, UniProt P22314)","ubiquitin thioester transfer to UBE2D2, inhibitor",,"concentration not given, staple-scanning screen",,inactive
COc1ccc2c(c1)CC[C@@H]1[C@@H]2CC[C@@]2(C)C(=O)CC[C@@H]12,AKR1C1,"enzyme activity, inhibitor, absorbance",,"10 µM, pH 9",,1.3%
Cc1cc2c(NC(=O)N[C@@H]3CC(C)(C)Oc4c(OC(F)(F)F)cccc43)cccc2cn1,"TRPV1 (Homo sapiens, UniProt Q8NER1)","acid-evoked calcium influx, antagonist","HEK293, human","11.25 µM, pH 5",,35.4 ± 2.1%
COc1ccc(-c2ccc3ncc4c(c3c2)n(-c2ccc(N3CCNCC3)c(C(F)(F)F)c2)c(=O)n4C)cn1,"ATR (Homo sapiens, UniProt Q13535)","autophosphorylation, Western blot, measured: phospho-ATR",HEK293,"concentration not given, added: neocarzinostatin",,no inhibition
COc1ccc(-c2n[nH]cc2/C=C2\SC(=S)N(CC(=O)O)C2=O)cc1,"SIRT1 (Homo sapiens, UniProt Q96EB6)","enzyme activity, inhibitor, fluorescence",,10 µM,,< 30%
Cc1cc(O)c2c(c1)[C@H]([C@@H]1O[C@H](CO)[C@@H](O)[C@H](O)[C@H]1O)c1cccc(O)c1C2=O,IDO1,kynurenine formation,,100 µM,,61.5 ± 1.67%
CC(C)c1nnc(-c2cccc(Nc3ncnn4ccc(CN5CCC(N)CC5)c34)c2)s1,kinase panel,"enzyme activity, inhibitor",,"concentration not given, seven off-target kinases besides AAK1",,inhibited
C[C@]12CC[C@@H]3c4cc(Cl)c(O)cc4CC[C@H]3[C@@H]1CCC2=O,AKR1C1,"enzyme activity, inhibitor, absorbance",,"100 µM, pH 9",,91.6%
Cc1ccc2c(c1Br)C(O)(CC(=O)c1ccc3c(c1)OCO3)C(=O)N2 (stereo not shown),"UAP1 (Homo sapiens, UniProt Q16222)","enzyme activity, HPAEC",,concentration not given,,no inhibition
C[C@]12CC[C@@H]3c4cc(I)c(O)c(I)c4CC[C@H]3[C@@H]1CCC2=O,AKR1C1,"enzyme activity, inhibitor, absorbance",,"10 µM, pH 9",,42.2%
O=C(OC(C(F)(F)F)C(F)(F)F)N1CCC(Cn2ccc3cc(F)ccc32)CC1,"Faah (Rattus norvegicus, UniProt P97612)",,,10 µM,,inactive
CC(=O)c1cnc(N)nc1N1CC[C@H]1c1nn2ccc(Cl)c2c(=O)n1-c1ccccc1,"CACNA1C (Homo sapiens, UniProt Q13936)","ion current, inhibitor",,3 µM,,< 10%
COc1ccc(O)c(C2=NN(c3ccc(S(N)(=O)=O)cc3)C(c3ccc(Br)cc3)C2)c1 (stereo not shown),"CA9 (Homo sapiens, UniProt Q16790)","enzyme activity, inhibitor",,1 mM,,23%
Cn1nc(-c2ccc(Cl)cc2)c2cc(C(=O)NCCCN3CCCC3)sc21,"RAD51 (Homo sapiens, UniProt Q06609)",D-loop formation,,"10 x IC50, added: Ca2+ 1 mM",baseline: DMSO,> 2 fold
Cc1ccc(C2=Nc3ccccc3SC(c3ccc(C=CC(=O)c4ccccc4)cc3)C2)cc1 (stereo not shown),PPO3,"enzyme activity, inhibitor",,25 µg/mL,,54%
CCC(=O)N(C)c1ccc(Cl)c(Cl)c1,"Oprk1 (Rattus norvegicus, UniProt P34975)","ligand displacement, radioligand",,10 µM,,15.2%
C[C@@]12CC[C@@H]3c4cc(Br)c(O)cc4CC[C@H]3[C@@H]1CCC2=O,AKR1C1,"enzyme activity, inhibitor, absorbance",,"10 µM, pH 9",,47.2%
Brc1ccccc1-c1nnc(CSc2nnnn2-c2ccccc2)o1,"OPRK1 (Homo sapiens, UniProt P41145)","ligand displacement, radioligand",,10 µM,,85%
COc1cc(C(=O)NC2CCC(N3CCN(CC4CCC5(CCCC5)C4)CC3)CC2)c(F)cc1Nc1ncc2c(n1)N(C1CCCC1(F)F)CC(F)(F)C(=O)N2C (stereo not shown),"EPHB1 (Homo sapiens, UniProt P54762)","cell-free assay, TR-FRET",,10 µM,,0.93%
N=C(N)SCc1ccc(CSC(=N)N)cc1,IDO1,"enzyme activity, inhibitor, biochemical",,concentration not given,,inactive
C[C@@]12CC[C@@H]3c4cc(Br)c(O)c(Br)c4CC[C@H]3[C@@H]1CCC2=O,AKR1C1,"enzyme activity, inhibitor, absorbance",,"100 µM, pH 9",,88.7%
CCCCCCCCCCCCCC(=S)NCCCC[C@H](NC(=O)CNC(=O)CN)C(=O)NCC(=O)O,"SIRT3 (Homo sapiens, UniProt Q9NTG7)","enzyme activity, inhibitor",,50 µM,,43%
C[C@]12CC[C@@H]3c4ccc(O)c(Br)c4CC[C@H]3[C@@H]1CCC2=O,AKR1C1,"enzyme activity, inhibitor, absorbance",,"100 µM, pH 9",,100%
CC(=O)Nc1cc(COc2c(Cl)cc(CC(N)C(=O)O)cc2Cl)c2oc(-c3ccccc3)nc2c1 (stereo not shown),"SLC38A2 (Homo sapiens, UniProt Q96QD8)",L-alanine uptake,Xenopus oocytes,"1 and 10 µM, 30 min, added: L-[14C]alanine 50 µM",,no inhibition
CNCCNC(=O)CN1C(=O)Cc2c([nH]c3ccc(Br)cc23)-c2ccc(Cl)cc21,"Glutathionylspermidine synthase (Crithidia fasciculata, UniProt P90518)","enzyme activity, inhibitor",,300 µM,,20%
N[C@@H](CCC(=O)N[C@@H](CS[Se]Cc1ccc(-c2cccc(C(O)c3ccc(Cl)c(Cl)c3)c2)cc1)C(=O)NCC(=O)O)C(=O)O (stereo partly shown),"Cathepsin B (CTSB, Homo sapiens, UniProt P07858)",enzyme activity,,"concentration not given, added: Z-RR-AMC substrate, 1 mM GSH",,no inhibition

# Some of these lines once more:
Compound,target,test,test system,setting,scale,inhibition
COc1ccc(O)c(C2=NN(c3ccc(S(N)(=O)=O)cc3)C(c3ccc(Br)cc3)C2)c1 (stereo not shown),"CA9 (Homo sapiens, UniProt Q16790)","enzyme activity, inhibitor",,1 mM,,23%
CCCOc1ccc(C2CC(c3ccc(C)cc3)=Nc3ccccc3S2)cc1OC (stereo not shown),PPO3,"enzyme activity, inhibitor",,25 µg/mL,,38%
C[C@]12CC[C@@H]3c4cc(Cl)c(O)cc4CC[C@H]3[C@@H]1CCC2=O,AKR1C1,"enzyme activity, inhibitor, absorbance",,"100 µM, pH 9",,91.6%
